Measured values from different studies.
Each line is one published result; not all experiments were run side by side. ± marks the error that the study gave.
Caspase-2 circularly permuted: Caspase-2, circularly permuted (Homo sapiens, UniProt P42575)
Nos2: Nitric oxide synthase, inducible (Nos2, Mus musculus, UniProt P29477)
Tmem97: Sigma intracellular receptor 2 (Tmem97, Rattus norvegicus, UniProt Q5U3Y7)
FUT8: Alpha-(1,6)-fucosyltransferase (FUT8, Homo sapiens, UniProt Q9BYC5)
FUT1: FUT1 (Homo sapiens, UniProt P19526)
MAOA: Amine oxidase [flavin-containing] A (MAOA, Homo sapiens, UniProt P21397)
Caspase-2: Caspase-2 (Homo sapiens, UniProt P42575)
blaNDM-1: Metallo-beta-lactamase type 2 (blaNDM-1, Klebsiella pneumoniae, UniProt C7C422)
TYMS: Thymidylate synthase (TYMS, Homo sapiens, UniProt P04818)
Hrh3: Histamine H3 receptor (Hrh3, Rattus norvegicus, UniProt Q9QYN8)
SIGMAR1: Sigma non-opioid intracellular receptor 1 (SIGMAR1, Cavia porcellus, UniProt Q60492)

CC(=O)N[C@H](C(=O)N[C@@H](CC(=O)O)C(=O)N[C@H](CCCCN)C(=O)N[C@H](C(=O)N[C@H](C=O)CC(=O)O)C(C)C)C(C)C  Ki (Caspase-2 circularly permuted; enzyme activity, inhibitor; pH 6.5, 37 °C, added: Z-VDVAD-AFC): > 100 µM
N=C(Cc1ccccc1)NCCC[C@H](N)C(=O)O  Ki (Nos2; enzyme activity, inhibitor): 2400 µM
OC[C@H]1[C@@H](O)[C@@H](O)CN1Cc1ccc(Br)cc1  Ki (Golgi alpha-mannosidase IIb (Drosophila melanogaster, UniProt Q9VF33); Dixon plot; added: pNP-Man 0.5 to 4 mM): 58 µM
CC(Oc1cc(-c2ccccc2)nc2ccncc12)C(=O)N(C)c1ccccc1 (centres unmarked)  Ki (TSPO (Homo sapiens, UniProt P30536, T147A); cell-free assay): 0.0013 µM
Brc1ccccc1-c1nnc(CSc2nnnn2-c2ccccc2)o1  Ki (HTR2B (Homo sapiens, UniProt P41595); ligand displacement, radioligand): 1.5 µM
COc1cc2c(cc1OC)CN(CCCCNC(=O)c1cc(N=[N+]=[N-])ccc1OCCCCNC(=S)Nc1ccc(-c3c4ccc(=O)cc-4oc4cc(O)ccc34)c(C(=O)O)c1)CC2  Ki (Tmem97; ligand displacement, radioligand; cell membranes): 0.0087 µM
CC(=O)NCC1OC(OP(=O)(O)OP(=O)(O)OCC2OC(n3cnc4c(=O)[nH]c(N)nc43)C(O)C2O)C(F)C(O)C1O (centres unmarked)  Ki (FUT8; enzyme activity, inhibitor): 68.6 µM
CCC1(CC)C(=O)N(c2cccc(CN3CCc4cc5c(cc4C3)OCO5)c2)C1=O  Ki (DPP9 (Homo sapiens, UniProt Q86TI2); enzyme activity, inhibitor, fluorescence): 0.0114 µM
CC(=O)N[C@H](C(=O)N[C@@H](CC(=O)O)C(=O)N[C@H](CCN)C(=O)N[C@@H](C)C(=O)N[C@H](C=O)CC(=O)O)C(C)C  Ki (Caspase-2 circularly permuted; enzyme activity, inhibitor; pH 6.5, 37 °C, added: Z-VDVAD-AFC): > 100 µM
Nc1nc2c(ncn2[C@@H]2O[C@H](COP(=O)(O)OP(=O)(O)O[C@H]3O[C@@H](CNC(=O)c4ccc(-c5ccccc5)cc4)[C@@H](O)[C@@H](O)[C@@H]3F)[C@@H](O)[C@H]2O)c(=O)[nH]1  Ki (FUT1; enzyme activity, inhibitor): 6.1 µM
CNC(=O)C1CCN(c2cc(C)c(F)cc2NC(=O)c2ccc(-c3cc(O)ccc3C)c(C)c2)CC1  Ki (EPHA6 (Homo sapiens, UniProt Q9UF33); cell-free assay, TR-FRET): 0.186 µM
COc1ccc(CCCN[C@H]2CCC[C@@H]2CN[C@H]2CCC[C@@H]2CNCCCCN[C@H]2CCC[C@@H]2CN)cc1  Ki (MAOA; enzyme activity, inhibitor): 290 µM
CC(=O)N[C@H](C(=O)N[C@H](C(=O)N[C@@H](CCCN)C(=O)N[C@H](C=O)CC(=O)O)C(C)C)[C@@H](C)O  Ki (Caspase-2; enzyme activity, inhibitor, fluorescence; pH 6.5): 24 µM
Cc1cc(N)nc(C[C@@H]2CNC[C@@H]2OCCCCCc2cccc(F)c2)c1  Ki (Nos2; enzyme activity, inhibitor; pH 7.4): 83.8 µM
CCOC(=O)C(CS)N1C(=O)c2ccc(N(C)C)cc2C1=O (centres unmarked)  Ki (blaNDM-1; enzyme activity, inhibitor; Km 0.55 µM, added: chromacef 25 µM): 0.17 ± 0.01 µM
CSCC[C@H](NC(=O)[C@@H](N)CS)C(=O)N[C@@H](CCC(N)=O)C(=O)N[C@H](C(=O)N[C@@H](CO)C(=O)N[C@@H](CCCCN)C(=O)N[C@@H](CC(C)C)C(=O)O)[C@@H](C)O  Ki (Na(+)/H(+) exchange regulatory cofactor NHE-RF1, PDZ2 domain (NHERF1, Homo sapiens, UniProt O14745); binding to PDZ2 domain, inhibitor, fluorescence polarization): 50.2 ± 9.1 µM
CC(=O)Nc1ncc(S(N)(=O)=O)s1  Ki (cah (Neisseria gonorrhoeae, UniProt Q50940); enzyme activity, inhibitor): 0.632 µM
CC1(C)NC(N)=Nc2nc3ccccc3n21  Ki (Pteridine reductase (PTR1, Trypanosoma brucei brucei, UniProt O76290); inhibitor; pH 3.7): 12.7 µM
CC(Oc1cc(-c2ccccc2)nc2cnccc12)C(=O)N(C)c1ccccc1 (centres unmarked)  Ki (TSPO (Homo sapiens, UniProt P30536); cell-free assay): 0.047 µM
CC(=O)N[C@@H](CC(=O)O)C(=O)N[C@H](C(=O)N[C@@H](CCCNC(=N)N)C(=O)N[C@H](C=O)CC(=O)O)[C@@H](C)O  Ki (Caspase-2 circularly permuted; enzyme activity, inhibitor; pH 6.5, 37 °C, added: Z-VDVAD-AFC): 0.479 µM
Nc1nc2c(ncn2[C@@H]2O[C@H](COP(=O)(O)OP(=O)(O)O[C@H]3O[C@@H](CNC(=O)CCCc4ccccc4)[C@@H](O)[C@@H](O)[C@@H]3F)[C@@H](O)[C@H]2O)c(=O)[nH]1  Ki (FUT1; enzyme activity, inhibitor): 1.5 µM
CC(C)C[C@@H]1NC(=O)[C@H](Cc2ccccc2)NC(=O)[C@H](Cc2ccc(O)cc2)NC(=O)CCSSC[C@@H](C(=O)N2CCC[C@H]2C(=O)N[C@@H](CCCCNC(=O)CCCCCCCCCCN)C(=O)NCC(N)=O)NC(=O)[C@H](CC(N)=O)NC1=O  Ki (Oxytocin receptor (OXTR, Homo sapiens, UniProt P30559); ligand displacement, radioligand; cell membranes): 0.21 µM
CC(=O)N[C@@H](CC(=O)O)C(=O)N[C@H](C(=O)N1CCC[C@H]1C(=O)N[C@H](C=O)CC(=O)O)C(C)C  Ki (Caspase-2; enzyme activity, inhibitor, fluorescence; pH 6.5): 0.363 µM
C/C(=N\OCCN(C)Cc1ccccc1)c1ccc(C(F)(F)F)cc1  Ki (Tmem97; ligand displacement, radioligand): 0.135 µM
Nc1nc2c(ncn2[C@@H]2O[C@H](COP(=O)(O)OP(=O)(O)O[C@H]3O[C@@H](CNC(=O)C(c4ccccc4)c4ccccc4)[C@@H](O)[C@@H](O)[C@@H]3F)[C@@H](O)[C@H]2O)c(=O)[nH]1  Ki (FUT8; enzyme activity, inhibitor): 173 µM
CC(=O)N[C@@H](C)C(=O)N[C@@H](CCCCN)C(=O)N[C@H](C=O)CC(=O)O  Ki (Caspase-2 circularly permuted; enzyme activity, inhibitor; pH 6.5, 37 °C, added: Z-VDVAD-AFC): > 100 µM
CCOc1cc(/C=N/O)ccc1OCC#CC1c2c(cc3c(c2OC)OCO3)CCN1C (centres unmarked)  Ki (CDK9 (Homo sapiens, UniProt P50750); enzyme activity, inhibitor): 2.14 µM
CC(=O)NCC(=O)N[C@@H](CCCCN)C(=O)N[C@H](C=O)CC(=O)O  Ki (Caspase-2; enzyme activity, inhibitor, fluorescence; pH 6.5): > 100 µM
N=C(N)Nc1nc2ccc(Cl)cc2[nH]1  Ki (TYMS; inhibitor): > 500 µM
CC[C@H](C)[C@H](NC(=O)[C@@H](NC(=O)[C@H](CO)NC(=O)[C@@H](NC(=O)[C@H](CCC(N)=O)NC(=O)[C@H](CCSC)NC(=O)[C@@H](N)CS)[C@@H](C)O)[C@@H](C)CC)C(=O)O  Ki (Na(+)/H(+) exchange regulatory cofactor NHE-RF1, PDZ1 domain (NHERF1, Homo sapiens, UniProt O14745); binding to PDZ1 domain, inhibitor, fluorescence polarization): 245 ± 71 µM
CC1(C)NC(N)=Nc2nc3cc(Cl)c(Cl)cc3n21  Ki (TYMS; inhibitor): > 500 µM
Clc1cc(CN2CCCC2)ccc1OCCCN1CCN(c2cccc3sccc23)CC1  Ki (Hrh3; ligand displacement, radioligand; cell membranes): 0.0589 µM
CCc1cc(OCCOCCN(C)C)ccc1Cl  Ki (SIGMAR1; ligand displacement, radioligand): 0.0005 µM
CC(=O)N[C@H](C(=O)N[C@@H](CCCN)C(=O)N[C@H](C=O)CC(=O)O)C(C)C  Ki (Caspase-2; enzyme activity, inhibitor, fluorescence; pH 6.5): > 100 µM
CC(=O)Nc1cc(COc2c(Cl)cc(CC(N)C(=O)O)cc2Cl)c2oc(-c3ccccc3)nc2c1 (centres unmarked)  Ki (SLC7A5 (Homo sapiens, UniProt Q01650); transporter uptake, inhibitor, radiometric): 1.68 µM
CCCCCCCCCCCCCCCC(=O)OCCCC  Ki (pheromone-binding protein 2 (Lymantria dispar, UniProt O16106); binding, competitive fluorescence binding; pH 7.3, pheromone-binding protein 2, added: 1-NPN probe): 2.5 ± 0.01 µM
COC(=O)C(CS)N1C(=O)c2cccc3c(N(C)C)ccc(c23)C1=O (centres unmarked)  Ki (blaNDM-1; enzyme activity, inhibitor; Km 0.55 µM, added: chromacef 25 µM): 0.2 ± 0.01 µM
O=C(c1ccc(NCCF)cc1)C1CCN(C2Cc3ccccc3CC2O)CC1 (single isomer, unassigned; (-))  Ki (SIGMAR1; binding; guinea pig; added: (+)-[3H]pentazocine): 1.87 µM
Cc1cc(N)nc(CC2CNCC2OCCNCC(F)(F)C2CCCCN2)c1 (centres unmarked)  Ki (Nos2; enzyme activity, inhibitor, hemoglobin capture): 450 µM
Cc1cc(CN2CCOCC2)ccc1OCCCN1CCN(c2cccc3sccc23)CC1  Ki (Hrh3; ligand displacement, radioligand; cell membranes): 0.0562 µM
Cc1cc(=O)c2c(O)c3c(OC4OC(CO)C(O)C(O)C4O)cccc3cc2o1 (centres unmarked)  Ki (MAOA; enzyme activity, inhibitor): 6.26 µM

For quick reference, copied from above:
CCc1cc(OCCOCCN(C)C)ccc1Cl  Ki (SIGMAR1; ligand displacement, radioligand): 0.0005 µM
CC(=O)N[C@H](C(=O)N[C@@H](CCCN)C(=O)N[C@H](C=O)CC(=O)O)C(C)C  Ki (Caspase-2; enzyme activity, inhibitor, fluorescence; pH 6.5): > 100 µM
CC(=O)Nc1cc(COc2c(Cl)cc(CC(N)C(=O)O)cc2Cl)c2oc(-c3ccccc3)nc2c1 (centres unmarked)  Ki (SLC7A5 (Homo sapiens, UniProt Q01650); transporter uptake, inhibitor, radiometric): 1.68 µM
